# Assay results collected from several papers.
# Protocols differ between the studies behind these lines. “And” joins repeats or separate records; there may be more than shown. ± gives the spread as reported.
# Spike glycoprotein: Spike glycoprotein (Severe acute respiratory syndrome coronavirus 2, UniProt P0DTC2)
# rep main protease: Replicase polyprotein 1ab, main protease (rep, Severe acute respiratory syndrome coronavirus 2, UniProt P0DTD1)
# Sequence of UniProt P78348 (whole entry, unmodified, looked up): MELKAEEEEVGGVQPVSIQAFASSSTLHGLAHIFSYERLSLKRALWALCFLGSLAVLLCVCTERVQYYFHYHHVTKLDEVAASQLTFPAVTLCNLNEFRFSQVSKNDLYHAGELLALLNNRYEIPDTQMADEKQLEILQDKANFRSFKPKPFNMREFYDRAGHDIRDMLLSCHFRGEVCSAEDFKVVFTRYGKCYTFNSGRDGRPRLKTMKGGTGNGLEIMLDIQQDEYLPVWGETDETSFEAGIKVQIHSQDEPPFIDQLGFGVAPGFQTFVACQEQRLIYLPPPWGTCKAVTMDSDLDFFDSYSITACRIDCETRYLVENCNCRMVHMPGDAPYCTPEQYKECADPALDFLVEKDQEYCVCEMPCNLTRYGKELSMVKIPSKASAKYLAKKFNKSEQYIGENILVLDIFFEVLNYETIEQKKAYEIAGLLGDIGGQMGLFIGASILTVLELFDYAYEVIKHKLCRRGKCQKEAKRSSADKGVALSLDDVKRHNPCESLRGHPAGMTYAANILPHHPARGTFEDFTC
SMILES,tested on,test,system,setting,scale,quantity,result
Cc1ccc(Cl)cc1N1CCN(CCCNc2ncnc3onc(-c4ccc(F)cc4)c23)CC1,SARS-CoV-2,"cytopathic effect, cell-based CPE",USA_WA1/2020,"round 1, 5-point dilution",,AC50,11.2 µM
O=C(/C=C/c1ccc(O)c(O)c1/C=C/c1ccc(O)c(O)c1)O[C@H](Cc1ccc(O)c(O)c1)C(=O)O,Spike glycoprotein,"binding, BLI",,,,kon,346 M⁻¹ s⁻¹
CC(=O)c1cc([N+](=O)[O-])c(Sc2ccc(F)cc2F)s1,rep main protease,"viral replication, mKate2 reporter",SARS-CoV-2,20 µM,,inhibition,0.233%
CCc1c(C(=O)C(N)=O)c2c(OCC(=O)O)cccc2n1Cc1ccccc1,Daboia russelii venom phospholipase A2,"enzyme activity, inhibitor",TN population,"1 µM, with: NOB substrate",baseline: venom alone,remaining activity,94% and 100% and 90%
CC(C)c1cccc(C(C)C)c1N1C(=O)c2ccc(N)cc2C1=O,rep main protease,"viral replication, Gluc reporter",SARS-CoV-2,20 µM,,inhibition,-0.276%
O=C(O[C@@H]1O[C@@H]2COC(=O)c3cc(O)c(O)c(O)c3-c3c(cc(O)c(O)c3O)C(=O)O[C@H]([C@H]1O)[C@@H]2O)c1cc(O)c(O)c(O)c1,Spike glycoprotein,"binding, BLI",,,,koff,0.000435 s⁻¹
Nc1ncnc2c([C@@H]3N[C@H](CO)[C@@H](O)[C@H]3O)c[nH]c12,Marburg virus,viral RNA in cell lysate,"HeLa, Musoke","6.3 µM, 1 h",,inhibition,73.3%
CC(=O)c1cc([N+](=O)[O-])c(Sc2cccc(Cl)c2Cl)s1,rep main protease,"viral replication, mKate2 reporter",SARS-CoV-2,20 µM,,inhibition,-1.82%
Cn1cnc(Cn2c(=O)[nH]/c(=N\c3cc4cn(C)nc4cc3Cl)n(Cc3cc(F)c(F)cc3F)c2=O)n1,,,"human, severe renal impairment","oral, 375 mg, vessel puncture site haemorrhage TEAE, Moderate severity",,patients with adverse event,0%
O=C(NC[C@@H]1Cc2ccccc2CN1C(=O)c1noc2c1CCCC2)c1cn[nH]c(=O)c1,rep main protease,"enzyme activity, inhibitor",,"5 µM, run 1",,inhibition,6.6%
O=c1cc(-c2ccc(O)cc2)oc2cc(O)c(O)c(O)c12,Spike glycoprotein,"binding, BLI",,,,kon,95.3 M⁻¹ s⁻¹
CCCCN(CCCC)CCCNC(=O)c1ccc2nc(N3CCCCC3)sc2c1,SARS-CoV-2,cytopathic effect,USA_WA1/2020,"round 2, 5-point",,maximum response,42.5%
Cc1nn(CC(=O)N2C[C@H]3C[C@@H]2CC[C@H]3NC(=O)C=C2C3CC4CC(C3)CC2C4)c(=O)n1C,rep main protease,"enzyme activity, inhibitor",,"5 µM, run 1",,inhibition,10.8%
CC[C@H](C)[C@H](NC(=O)[C@@H]1CCCN1C(=O)[C@H](C)NC(=O)[C@@H]1CSSC[C@@H]2NC(=O)[C@H](CC(=O)O)NC(=O)[C@H](CCCNC(=N)N)NC(=O)[C@H](CCC(=O)O)NC(=O)[C@H](CCCNC(=N)N)NC(=O)CNC(=O)[C@H](CC(=O)O)NC(=O)[C@@H]3CSSC[C@H](NC(=O)[C@H](CCC(=O)O)NC(=O)[C@H](CC(C)C)NC(=O)CNC(=O)[C@H](C)NC(=O)[C@H](CSSC[C@H](NC(=O)[C@H](Cc4ccccc4)NC(=O)[C@@H](N)CO)C(=O)N[C@@H](CC(C)C)C(=O)N[C@@H](C(C)C)C(=O)N[C@@H](CCCCN)C(=O)N[C@@H](Cc4c[nH]c5ccccc45)C(=O)N[C@@H](CCCCN)C(=O)N[C@@H](CCC(N)=O)C(=O)N3)NC2=O)C(=O)N[C@@H](Cc2c[nH]c3ccccc23)C(=O)N[C@@H](CCCCN)C(=O)N[C@@H](CCCNC(=N)N)C(=O)N[C@@H](CO)C(=O)NCC(=O)N[C@@H](CC(N)=O)C(=O)N[C@@H](CCCCN)C(=O)N[C@@H](CO)C(=O)N[C@@H](CO)C(=O)N[C@@H](C(C)C)C(=O)N1)C(=O)N[C@H](C(=O)O)[C@@H](C)O,"ASIC1 (Homo sapiens, UniProt P78348, F352A)",outside-out patch clamp,HEK-293T ASIC1a knockout,"1 µM, F352A mutant",,rise time,13 ± 4 ms
CNC1(c2ccccc2Cl)CCCCC1=O (racemic),muscarinic acetylcholine receptor,"radioligand binding, antagonist, radioligand displacement",,30 µM,,inhibition,-39%
NC(=O)c1ccc(/C=C/C(=O)N2C[C@H]3CCC[C@@H](C2)N3C(=O)CCn2c(O)ccc2O)cc1,rep main protease,"enzyme activity, inhibitor",,"5 µM, mean of runs",,inhibition,14.8%
CC(CC(=O)C[C@@H](C)[C@H]1CC(=O)[C@@]2(C)C3=C(C(=O)C[C@]12C)[C@@]1(C)CC[C@H](O)C(C)(C)[C@@H]1C[C@@H]3O)C(=O)O (some centres unmarked),rep main protease,"reporter gene (Gaussia luciferase), inhibitor",,20 µM,,inhibition,0.526%
CC(C)(O)C(F)(F)C(=O)N[C@@H](CNc1ccc2nnnn2n1)c1ccc2ccccc2c1,rep main protease,"enzyme activity, inhibitor",,"5 µM, mean of runs",,inhibition,12.6%
CC[C@H](C)[C@H](NC(=O)[C@H](CC(C)C)NC(=O)[C@H](Cc1c[nH]c2ccccc12)NC(=O)[C@H](CCC(N)=O)NC(=O)[C@@H](NC(=O)[C@H](Cc1ccccc1)NC(=O)[C@H](C)NC(=O)[C@H](CCCCNC(=O)COCCOCCNC(=O)COCCOCCNC(=O)CC[C@H](NC(=O)CCCCCCCCCCCCCCCCCCC(=O)O)C(=O)O)NC(=O)[C@H](CCC(N)=O)NC(=O)[C@H](C)NC(=O)[C@@H](NC(=O)[C@H](CCCCN)NC(=O)[C@H](CC(=O)O)NC(=O)[C@H](CC(C)C)NC(=O)C(C)(C)NC(=O)[C@@H](NC(=O)[C@H](CO)NC(=O)[C@H](Cc1ccc(O)cc1)NC(=O)[C@H](CC(=O)O)NC(=O)[C@H](CO)NC(=O)[C@@H](NC(=O)[C@H](Cc1ccccc1)NC(=O)[C@@H](NC(=O)CNC(=O)[C@H](CCC(=O)O)NC(=O)C(C)(C)NC(=O)[C@@H](N)Cc1ccc(O)cc1)[C@@H](C)O)[C@@H](C)O)[C@@H](C)CC)[C@@H](C)CC)C(C)C)C(=O)N[C@@H](C)C(=O)NCC(=O)NCC(=O)N1CCC[C@H]1C(=O)N[C@@H](CO)C(=O)N[C@@H](CO)C(=O)NCC(=O)N[C@@H](C)C(=O)N1CCC[C@H]1C(=O)N1CCC[C@H]1C(=O)N1CCC[C@H]1C(=O)N[C@@H](CO)C(N)=O,,item: treatment-emergent decreased appetite,healthy subjects,"1.5 mg, multiple ascending dose",,subjects with adverse event,16.7%
CC[C@H](C)[C@H](NC(=O)[C@H](CC(C)C)NC(=O)[C@H](CO)NC(=O)[C@H](Cc1c[nH]cn1)NC(=O)[C@@H](NC(=O)[C@H](CC(C)C)NC(=O)[C@H](CO)NC(=O)[C@@H](NC(=O)[C@H](Cc1ccc(O)cc1)NC(=O)[C@H](CC(N)=O)NC(=O)[C@H](CC(N)=O)NC(=O)[C@@H](NC(=O)[C@H](CCC(=O)O)NC(=O)[C@H](CCCNC(=N)N)NC(=O)[C@H](CC(=O)O)NC(=O)[C@H](Cc1c[nH]c2ccccc12)NC(=O)[C@H](CCC(=O)O)NC(=O)[C@H](CCSC)NC(=O)[C@H](Cc1c[nH]c2ccccc12)NC(C)=O)[C@@H](C)CC)[C@@H](C)O)[C@@H](C)CC)C(=O)N[C@@H](CCC(=O)O)C(=O)N[C@@H](CCC(=O)O)C(=O)N[C@@H](CO)C(=O)N[C@@H](CCC(N)=O)C(=O)N[C@@H](CC(N)=O)C(=O)N[C@@H](CCC(N)=O)C(=O)N[C@@H](CCC(N)=O)C(=O)N[C@@H](CCC(=O)O)C(=O)N[C@@H](CCCCN)C(=O)N[C@@H](CC(N)=O)C(=O)N[C@@H](CCC(=O)O)C(=O)N[C@@H](CCC(N)=O)C(=O)N[C@@H](CCC(=O)O)C(=O)N[C@@H](CC(C)C)C(=O)N[C@@H](CC(C)C)C(=O)NCC(=O)N[C@@H](CO)C(=O)NCC(=O)N[C@@H](CSCC(=O)O[C@H]1CC[C@@]2(C)C(=CC[C@H]3[C@@H]4CC[C@H]([C@H](C)CCCC(C)(C)O)[C@@]4(C)CC[C@@H]32)C1)C(N)=O,,Trp fluorescence,POPC vesicles,"5 µM, pH 7.4, 25 °C",,partition coefficient,1540 ± 347
